Measurements of several laboratories.
A part holds a random share of what one study measured.

Block 1 — method: Spec-seq; form: double-stranded DNA, one strand shown; medium: in vitro; tested at: not given; setting: whole probe, mean of replicates; reference: not given; reading: lower = stronger binding; quantity: relative binding energy; shared flanks, not repeated: GAGTCGTCTCGTCAGCAC … CCGTAGAGCACTCAGGTC
Target: Transcription factor SOX-2, HMG box (Sox2, Mus musculus, UniProt P48432, residues 41-119)
Sequence of UniProt P48432 (41-119, looked up): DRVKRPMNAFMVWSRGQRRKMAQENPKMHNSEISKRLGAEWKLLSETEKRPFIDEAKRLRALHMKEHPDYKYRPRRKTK
TTGGGTT: 1.16 ln ratio
ACCCGTT: 0.567 ln ratio
CATCCGT: 1.05 ln ratio
CATCGAC: 0.714 ln ratio
CATGCAA: 0 ln ratio
CATATCC: 0.594 ln ratio
CATGTCA: 0.519 ln ratio
CGATGTT: 0.599 ln ratio
CATAGAG: -1.01 ln ratio
CATCAAT: -0.0783 ln ratio
TAGGGTT: 0.913 ln ratio
CATGGGC: 0.0425 ln ratio
GACCGTT: 1.36 ln ratio
ACCAGTT: 0.17 ln ratio
CATACGG: -0.104 ln ratio
CATGGCC: 0.23 ln ratio
TACGGTT: 0.734 ln ratio
CCAGGTT: 1.25 ln ratio
ACGAGTT: 0.648 ln ratio
CATGAGC: 0.144 ln ratio
AGCCGTT: 0.862 ln ratio
ATCGGTT: 0.788 ln ratio
GTAAGTT: 0.771 ln ratio
CATTGCT: -0.355 ln ratio
GATTGTT: -2.02 ln ratio

Block 2 — method: RNA Bind-n-Seq; form: RNA; medium: in vitro; tested at: 200 nM; setting: whole 134-nt RNA, ends assumed; together with: 150 mM LiCl; reference: input library; reading: higher = stronger binding; quantity: log2 enrichment; library: 7-deaza-guanosine replaces G
Target: Ras GTPase-activating protein-binding protein 1, full length (G3BP1, Homo sapiens, UniProt Q13283)
Sequence of UniProt Q13283 (whole entry, looked up): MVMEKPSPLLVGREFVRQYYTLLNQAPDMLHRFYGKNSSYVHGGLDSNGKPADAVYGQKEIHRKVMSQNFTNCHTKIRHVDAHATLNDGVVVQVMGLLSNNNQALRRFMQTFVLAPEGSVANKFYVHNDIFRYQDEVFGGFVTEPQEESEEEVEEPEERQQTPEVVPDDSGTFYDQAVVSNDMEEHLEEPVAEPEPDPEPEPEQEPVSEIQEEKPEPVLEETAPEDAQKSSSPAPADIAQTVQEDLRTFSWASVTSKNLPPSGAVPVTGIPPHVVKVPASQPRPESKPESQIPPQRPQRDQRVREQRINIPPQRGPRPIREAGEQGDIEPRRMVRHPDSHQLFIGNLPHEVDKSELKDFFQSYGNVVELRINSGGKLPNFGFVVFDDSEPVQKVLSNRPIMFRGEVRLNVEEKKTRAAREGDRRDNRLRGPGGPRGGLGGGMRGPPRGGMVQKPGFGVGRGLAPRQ
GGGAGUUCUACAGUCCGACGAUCAGUCCUGUGCUACACAUCGUAUGUACCGAAUCGGGCCCCCGGCCCCCGGGGCCCCCGGAAAGUAUUAUGUUACGCCGUUCGGAUCUGCACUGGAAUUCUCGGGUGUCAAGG: -1.86
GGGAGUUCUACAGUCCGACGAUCAACAUGCAGGUGGGCAUCUUUGGGAAGUGGGGCAAGGGGGGGAUAGGGAGGGGGGUAACACUUUGGGAACAGGUGGUCCCAGGUCGUUUCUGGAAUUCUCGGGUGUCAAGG: 0.331
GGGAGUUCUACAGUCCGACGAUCUCAAGUCCUGUGCUACACAUCGUAUGUACCGAAUCGGCCGGGCCGGGGCCGGGGAAAGUAUUAUGUUACGCCGUUCGGAUCUGCACUUCCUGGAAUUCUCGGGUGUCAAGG: 0.0201
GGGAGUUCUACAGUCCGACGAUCUGGCCCUGGUGGCAUGCGGGGAGGAAGAGGUGGCCUCAUGGAUCGUGGUGGUCCAGGUGGAAUGUUCAGAGGUGGCCGUGGUGGAGACAGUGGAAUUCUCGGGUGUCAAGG: 0.135
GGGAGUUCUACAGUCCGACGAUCAAGUCCUGUGCUACACAUCGUAUGUACCGAAUCAAACCCAAAUUUAAACCCCCAAAAAAGUAUUAUGUUACGCCGUUCGGAUCUGCACUUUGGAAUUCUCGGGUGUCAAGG: 1.52
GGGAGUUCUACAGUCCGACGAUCUAACUUUAGAGGAGGAUCUGAUGGAUAUGGUAGUGGACGUGGAUUUGGGGAUGGCUAUAAUGGGUAUGGAGGAGGACCUGGAGGUGGCAAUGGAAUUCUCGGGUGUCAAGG: 0.107
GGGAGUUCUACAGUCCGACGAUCCUCAAGUCCUGUGCUACACAUCGUAUGUACCGAAUCGGAAGGGAAGGGGAAGGAAAGUAUUAUGUUACGCCGUUCGGAUCUGCACUUCCAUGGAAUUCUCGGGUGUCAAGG: -0.168
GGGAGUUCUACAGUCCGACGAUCUUUGGAGAAGGAACCCCACUCUCCAGCUGACCAGCCUGAACAACAGGCAGAAUCCACUUUGACAUCAGCUGAGACUAGGGGAAGCAAGAAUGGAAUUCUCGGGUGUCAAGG: -0.126
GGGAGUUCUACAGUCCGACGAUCGCAGGAAGUAAAAACAAAUGGAAAUGCUUCGGAUAGUGGCAGCGGUGGGGGUUGCUAAGGAAAGGGUGGGAUGGGAGUGGGUAAAGAGUUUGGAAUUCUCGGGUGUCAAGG: 0.0206
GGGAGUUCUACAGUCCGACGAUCUGGCCCUGGCGGCAUGCGGGGAGGAAGAGGUGGCCUCAUGGAUCGUGGUGGUCCCGGUGGAAUGUUCAGAGGUGGCCGUGGUGGAGACAGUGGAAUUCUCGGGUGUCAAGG: 0.272
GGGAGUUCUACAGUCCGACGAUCAGUCCUGUGCUACACAUCGUAUGUACCGAAUCGGGUUUUUUUGGGUUUGGGUUUGGGAAAGUAUUAUGUUACGCCGUUCGGAUCUGCACUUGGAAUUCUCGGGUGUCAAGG: -0.593

Block 3 — method: protein-binding microarray; form: double-stranded DNA, one strand shown; medium: in vitro; tested at: 250 nM; setting: 60-bp whole probe; together with: salmon DNA 0.4 mg/ml; reference: random background probes; reading: higher = stronger binding; quantity: log fluorescence; shared flanks, not repeated: GCCTAGCAC … GTCTTGATTCGCTTGACGCTGCTG
Target: Interferon regulatory factor 5, full length, phosphomimetic (IRF5, Homo sapiens, UniProt Q13568-2, residues 1-514, K96S/S451D/S453D/S456D/S462D)
TCATTTGACTCTTTCTGACTGTGCTAG: 0.782 z-score
TTAGAACTGAGTATTGATTAGTGCTAG: 0.403 z-score
TGTACTCTCTCCATGTGTTTGTGCTAG: 0.35 z-score
TTAGGGATCGGTATCGGTTAGTGCTAG: 5.24 z-score
TTAGGTTTCGACTATCGGTAAGTGCTA: 9.19 z-score
GGCGATTTCAGTCTCGAGACGTGCTAG: 1.34 z-score
GACGGTATACTTATCCTGACGTGCTAG: 0.0482 z-score
AAGTGTTTCTCAACCAGTTTGTGCTAG: 0.456 z-score
GACGAACTGGGGACTGGAGCCGTGCTA: -0.726 z-score
GACGAACTGGGACTGGAGACGTGCTAG: -0.426 z-score
GCAAACCCCATTCTCAGCCCGTGCTAG: -0.446 z-score
TCCTCTTTCACTGCTCCATACGTGCTA: 3.93 z-score
ACACATCTCACTCTAATCTCGTGCTAG: 0.601 z-score
TTAGATTGCAGTTCCGATTAGTGCTAG: 0.73 z-score
TCAAGTGTGTGTCTGATACTGTGCTAG: -0.185 z-score
TTAGGATTCCTACTGCTTTAGTGCTAG: -0.064 z-score
TCAGTTCTGATCCTTCCCACTGTGCTA: 0.323 z-score
GACGTTATCGGTCTCGGGACGTGCTAG: 4.96 z-score

Block 4 — method: protein binding microarray; form: double-stranded DNA, one strand shown; medium: in vitro; tested at: not given; reference: not given; reading: higher = stronger binding; quantity: E-score
Target: Histone acetyltransferase KAT6A, winged helix 1, GST fusion (KAT6A, Homo sapiens, UniProt Q92794, residues 1-85)
Setting: 8-mer, flanks averaged, mean of 2 arrays, mostly near background
Target sequence (chain): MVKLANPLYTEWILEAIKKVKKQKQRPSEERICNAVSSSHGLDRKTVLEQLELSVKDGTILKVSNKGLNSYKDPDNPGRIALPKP
CGCGTAGC: 0.399
ATATAGAG: 0.0307
GATCTAAC: -0.117
CATGGACA: -0.287
ATGGCCAT: -0.159
AATGATGT: -0.153
ACACTGAC: -0.187
CTTTGAAC: -0.167
CCCTCACA: -0.139
CGTACATC: 0.0702
GTCATCAC: -0.062
CAGCGAGC: 0.0582
ATGGGCCG: 0.199
TACTAAAA: 0.0169
CATAGAAG: -0.186
ACAGGTAT: -0.0377
ACTGCTAG: -0.0946
CTCACATA: 0.0219
ATAGACGC: 0.175
CACTCGGG: 0.0631
CTCATGGC: -0.00834

Block 5 — method: competition protein-binding microarray; form: double-stranded DNA, one strand shown; medium: in vitro; tested at: 2 µM; together with: Pho4 competitor, 0.05 µM; reading: higher = stronger binding; quantity: fluorescence intensity
Target: Centromere-binding protein 1, full length, His-tagged (CBF1, Saccharomyces cerevisiae, UniProt P17106, residues 1-351)
Sequence of UniProt P17106 (whole entry, looked up): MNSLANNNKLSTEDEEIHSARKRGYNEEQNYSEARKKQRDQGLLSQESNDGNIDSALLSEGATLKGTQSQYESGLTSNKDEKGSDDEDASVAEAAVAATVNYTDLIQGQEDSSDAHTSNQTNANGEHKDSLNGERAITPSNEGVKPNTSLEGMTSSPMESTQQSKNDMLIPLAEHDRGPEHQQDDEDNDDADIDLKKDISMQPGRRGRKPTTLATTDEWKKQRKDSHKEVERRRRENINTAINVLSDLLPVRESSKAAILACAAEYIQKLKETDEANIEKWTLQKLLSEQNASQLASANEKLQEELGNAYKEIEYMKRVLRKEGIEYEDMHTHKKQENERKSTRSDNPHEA
Setting: whole 60-bp probe, lowest competitor level
CTGATGCCCATGGAGACTGTGACGCTAAGAGGAATTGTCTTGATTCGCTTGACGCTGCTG: 72.7 a.u.
AAAACGAGCCTCCATCACGTGCAAAAAAGAAATAGTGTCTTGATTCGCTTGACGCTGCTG: 4290 a.u.
CATACCCAACCTTGTATGGTGGGTGAAGATATTTGTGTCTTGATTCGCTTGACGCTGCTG: 70.5 a.u.
CATTGGTGTCATTGTCATGATCCACTCTGACAACAAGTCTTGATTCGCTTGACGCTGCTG: 78.9 a.u.
TTTGGTGACTTACACCACATGTAATGACGCTATGACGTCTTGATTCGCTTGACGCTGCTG: 117 a.u.
CTTTCTGCCTTGGAAGGCGTGATGGTGATGGTACATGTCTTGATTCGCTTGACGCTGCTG: 117 a.u.
CTAACGAAGGTTTGGCTCGTGGGTGACAAGCCAAGTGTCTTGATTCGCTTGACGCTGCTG: 86.8 a.u.
CGGGGTTAAGTTTGCAAAGTGGGTGGCTTGCAGCAGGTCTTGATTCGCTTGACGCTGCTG: 70.2 a.u.
GTCTTGTCTCATTGGCTAGTGGGTGTCCCCACTTCAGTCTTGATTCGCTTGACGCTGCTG: 61.5 a.u.
GAAGCTGTTATACTATTCGTGATTGTGGGCAAAAATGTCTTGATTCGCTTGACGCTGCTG: 82.2 a.u.
TTGAATGAGCAATCGCACGATGTCCCAATGGCACTCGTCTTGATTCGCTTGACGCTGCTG: 65.8 a.u.
CTTTCCCGATCTTTTCACGTGATCTTAGCACATTTGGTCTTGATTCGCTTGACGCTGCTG: 5000 a.u.
ACATACGCATATTTGCACGTACAAGATAAAAAAAGCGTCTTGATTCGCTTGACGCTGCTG: 107 a.u.

A few entries again (block 4):
TACTAAAA: 0.0169
CTCACATA: 0.0219
ACAGGTAT: -0.0377
CACTCGGG: 0.0631
GATCTAAC: -0.117
CGTACATC: 0.0702
CTCATGGC: -0.00834
ATAGACGC: 0.175
CATGGACA: -0.287
ATATAGAG: 0.0307
CCCTCACA: -0.139
CGCGTAGC: 0.399
ACTGCTAG: -0.0946
